# Measurements pooled from the literature.
# Protocols differ between the studies behind these lines. “And” joins repeats or separate records; there may be more than shown. ± marks the error that the study gave.
# ache: Acetylcholinesterase (ache, Electrophorus electricus, UniProt O42275)
# UniProt O42275, sequence (whole entry, looked up): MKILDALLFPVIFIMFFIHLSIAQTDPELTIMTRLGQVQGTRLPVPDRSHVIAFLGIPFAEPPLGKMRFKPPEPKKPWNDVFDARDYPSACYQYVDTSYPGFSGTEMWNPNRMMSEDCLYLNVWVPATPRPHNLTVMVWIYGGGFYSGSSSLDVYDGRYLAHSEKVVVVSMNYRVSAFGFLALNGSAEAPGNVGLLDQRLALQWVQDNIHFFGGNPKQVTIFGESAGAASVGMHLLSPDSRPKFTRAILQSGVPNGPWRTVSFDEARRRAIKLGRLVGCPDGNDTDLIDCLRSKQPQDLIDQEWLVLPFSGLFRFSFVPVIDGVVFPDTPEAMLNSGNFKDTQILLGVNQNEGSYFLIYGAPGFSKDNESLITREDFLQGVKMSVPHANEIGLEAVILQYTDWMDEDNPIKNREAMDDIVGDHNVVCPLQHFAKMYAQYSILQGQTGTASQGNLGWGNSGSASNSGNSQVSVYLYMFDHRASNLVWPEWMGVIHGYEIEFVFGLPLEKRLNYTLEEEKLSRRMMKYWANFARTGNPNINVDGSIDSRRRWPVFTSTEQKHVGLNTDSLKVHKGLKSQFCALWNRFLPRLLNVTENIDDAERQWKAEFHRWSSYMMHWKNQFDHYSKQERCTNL
# dcp2 with Dcp1: mRNA decapping complex subunit 2, with Dcp1 (dcp2, Schizosaccharomyces pombe, UniProt O13828)
# UniProt O13828, sequence (whole entry, looked up): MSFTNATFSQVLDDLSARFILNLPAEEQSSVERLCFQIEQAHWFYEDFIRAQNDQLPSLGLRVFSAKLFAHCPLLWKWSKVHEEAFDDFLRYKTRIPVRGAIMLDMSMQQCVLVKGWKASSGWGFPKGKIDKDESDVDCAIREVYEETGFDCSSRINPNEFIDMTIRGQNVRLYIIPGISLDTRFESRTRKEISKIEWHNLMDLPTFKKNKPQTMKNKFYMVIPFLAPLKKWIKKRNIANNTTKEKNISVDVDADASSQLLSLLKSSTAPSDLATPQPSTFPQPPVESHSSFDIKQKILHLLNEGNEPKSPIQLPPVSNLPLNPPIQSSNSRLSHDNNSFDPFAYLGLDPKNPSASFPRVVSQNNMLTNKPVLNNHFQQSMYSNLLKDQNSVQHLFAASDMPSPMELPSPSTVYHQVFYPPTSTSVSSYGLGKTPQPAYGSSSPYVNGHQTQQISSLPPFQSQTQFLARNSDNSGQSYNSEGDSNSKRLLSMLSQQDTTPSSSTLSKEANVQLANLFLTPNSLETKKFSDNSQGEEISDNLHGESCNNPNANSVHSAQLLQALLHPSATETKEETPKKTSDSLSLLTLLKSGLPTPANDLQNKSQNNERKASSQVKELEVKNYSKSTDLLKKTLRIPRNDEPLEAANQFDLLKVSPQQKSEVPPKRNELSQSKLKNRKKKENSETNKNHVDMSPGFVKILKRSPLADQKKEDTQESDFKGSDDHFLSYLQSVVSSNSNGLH
# UniProt Q96L34, sequence (whole entry, looked up): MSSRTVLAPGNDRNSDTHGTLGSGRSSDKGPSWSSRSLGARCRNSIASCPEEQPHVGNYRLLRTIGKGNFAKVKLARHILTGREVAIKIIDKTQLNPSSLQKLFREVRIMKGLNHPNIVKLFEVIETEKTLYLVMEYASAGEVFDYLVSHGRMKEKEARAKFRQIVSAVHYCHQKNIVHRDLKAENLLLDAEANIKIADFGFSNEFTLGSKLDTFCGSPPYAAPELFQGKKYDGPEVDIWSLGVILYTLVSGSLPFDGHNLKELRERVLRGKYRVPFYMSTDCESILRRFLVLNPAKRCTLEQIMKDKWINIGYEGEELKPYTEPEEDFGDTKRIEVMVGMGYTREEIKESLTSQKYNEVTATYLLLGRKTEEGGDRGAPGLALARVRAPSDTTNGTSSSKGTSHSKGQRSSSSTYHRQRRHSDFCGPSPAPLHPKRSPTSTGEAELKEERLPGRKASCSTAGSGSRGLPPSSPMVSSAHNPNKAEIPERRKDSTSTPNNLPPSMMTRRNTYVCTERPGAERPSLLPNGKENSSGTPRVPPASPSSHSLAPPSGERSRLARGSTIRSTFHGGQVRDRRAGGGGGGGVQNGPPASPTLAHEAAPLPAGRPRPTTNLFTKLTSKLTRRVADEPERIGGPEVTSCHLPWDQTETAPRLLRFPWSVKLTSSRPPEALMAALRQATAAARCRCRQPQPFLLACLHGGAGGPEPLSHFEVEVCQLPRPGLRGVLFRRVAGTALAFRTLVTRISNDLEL
# UniProt P23458, sequence (whole entry, looked up): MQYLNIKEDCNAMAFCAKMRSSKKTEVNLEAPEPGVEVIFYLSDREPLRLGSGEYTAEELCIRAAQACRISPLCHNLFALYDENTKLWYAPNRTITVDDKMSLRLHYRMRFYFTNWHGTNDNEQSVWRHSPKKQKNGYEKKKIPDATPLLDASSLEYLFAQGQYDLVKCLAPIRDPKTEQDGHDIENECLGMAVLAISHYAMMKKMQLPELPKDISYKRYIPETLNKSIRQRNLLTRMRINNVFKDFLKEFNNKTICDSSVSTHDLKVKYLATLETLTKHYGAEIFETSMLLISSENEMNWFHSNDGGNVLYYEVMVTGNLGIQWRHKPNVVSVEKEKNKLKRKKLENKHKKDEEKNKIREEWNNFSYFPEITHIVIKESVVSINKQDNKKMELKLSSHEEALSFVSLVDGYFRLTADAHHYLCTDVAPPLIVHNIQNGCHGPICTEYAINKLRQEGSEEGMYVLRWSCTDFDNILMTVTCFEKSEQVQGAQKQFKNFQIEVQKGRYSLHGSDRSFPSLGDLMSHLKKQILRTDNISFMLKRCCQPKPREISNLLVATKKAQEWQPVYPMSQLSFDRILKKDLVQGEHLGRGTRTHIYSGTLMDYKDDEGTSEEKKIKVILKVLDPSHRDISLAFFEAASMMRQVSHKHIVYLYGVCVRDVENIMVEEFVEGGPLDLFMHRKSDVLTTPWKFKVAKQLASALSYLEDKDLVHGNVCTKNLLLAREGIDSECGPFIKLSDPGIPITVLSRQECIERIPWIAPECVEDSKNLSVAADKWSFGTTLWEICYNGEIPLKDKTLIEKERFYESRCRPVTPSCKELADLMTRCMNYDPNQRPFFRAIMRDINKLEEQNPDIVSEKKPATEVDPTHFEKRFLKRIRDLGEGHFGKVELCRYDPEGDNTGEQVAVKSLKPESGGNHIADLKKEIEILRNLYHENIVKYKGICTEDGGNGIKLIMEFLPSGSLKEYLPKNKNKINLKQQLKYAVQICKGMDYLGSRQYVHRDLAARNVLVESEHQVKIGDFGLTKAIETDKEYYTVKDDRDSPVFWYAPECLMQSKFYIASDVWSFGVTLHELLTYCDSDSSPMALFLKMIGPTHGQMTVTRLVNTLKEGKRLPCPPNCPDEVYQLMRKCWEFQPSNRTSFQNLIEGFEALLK
# UniProt Q9Y2J8, sequence (whole entry, looked up): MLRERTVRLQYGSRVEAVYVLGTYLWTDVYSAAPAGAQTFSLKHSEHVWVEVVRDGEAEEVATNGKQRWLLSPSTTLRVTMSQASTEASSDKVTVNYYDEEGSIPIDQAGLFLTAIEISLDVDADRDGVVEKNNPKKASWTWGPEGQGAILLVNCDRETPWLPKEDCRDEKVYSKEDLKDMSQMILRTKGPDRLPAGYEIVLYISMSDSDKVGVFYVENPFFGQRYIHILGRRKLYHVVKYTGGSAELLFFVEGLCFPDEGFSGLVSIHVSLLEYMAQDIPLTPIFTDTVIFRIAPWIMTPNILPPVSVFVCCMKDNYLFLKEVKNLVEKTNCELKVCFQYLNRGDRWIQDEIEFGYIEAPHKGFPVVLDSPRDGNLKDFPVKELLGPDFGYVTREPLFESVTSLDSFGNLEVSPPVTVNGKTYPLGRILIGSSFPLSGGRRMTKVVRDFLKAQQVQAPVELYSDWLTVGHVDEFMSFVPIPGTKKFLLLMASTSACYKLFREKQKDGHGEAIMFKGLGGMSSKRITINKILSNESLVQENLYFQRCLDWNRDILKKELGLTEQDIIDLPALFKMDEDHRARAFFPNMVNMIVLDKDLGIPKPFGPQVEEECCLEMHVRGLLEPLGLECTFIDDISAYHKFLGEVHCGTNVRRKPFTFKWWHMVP
# UniProt Q9Y237, sequence (whole entry, looked up): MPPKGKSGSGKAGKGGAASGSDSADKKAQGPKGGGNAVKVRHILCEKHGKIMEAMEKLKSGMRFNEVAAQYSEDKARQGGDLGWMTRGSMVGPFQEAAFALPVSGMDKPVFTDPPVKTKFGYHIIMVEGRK
# UniProt P03372, sequence (whole entry, looked up): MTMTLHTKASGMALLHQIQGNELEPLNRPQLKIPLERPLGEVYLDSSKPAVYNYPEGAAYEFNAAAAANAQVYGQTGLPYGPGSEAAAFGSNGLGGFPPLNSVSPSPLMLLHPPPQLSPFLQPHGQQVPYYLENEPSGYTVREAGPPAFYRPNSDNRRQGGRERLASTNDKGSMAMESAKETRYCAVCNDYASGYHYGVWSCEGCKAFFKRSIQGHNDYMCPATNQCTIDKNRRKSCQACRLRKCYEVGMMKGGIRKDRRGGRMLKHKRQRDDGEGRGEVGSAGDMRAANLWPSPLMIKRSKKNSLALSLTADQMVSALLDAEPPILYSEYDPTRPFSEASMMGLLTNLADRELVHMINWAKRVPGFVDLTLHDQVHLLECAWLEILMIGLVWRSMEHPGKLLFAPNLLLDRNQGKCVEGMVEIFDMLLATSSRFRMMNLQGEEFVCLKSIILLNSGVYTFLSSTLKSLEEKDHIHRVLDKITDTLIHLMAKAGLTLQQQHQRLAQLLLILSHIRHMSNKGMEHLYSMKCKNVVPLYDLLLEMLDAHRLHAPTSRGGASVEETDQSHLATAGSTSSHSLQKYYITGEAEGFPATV
# UniProt Q9EP73, sequence (whole entry, looked up): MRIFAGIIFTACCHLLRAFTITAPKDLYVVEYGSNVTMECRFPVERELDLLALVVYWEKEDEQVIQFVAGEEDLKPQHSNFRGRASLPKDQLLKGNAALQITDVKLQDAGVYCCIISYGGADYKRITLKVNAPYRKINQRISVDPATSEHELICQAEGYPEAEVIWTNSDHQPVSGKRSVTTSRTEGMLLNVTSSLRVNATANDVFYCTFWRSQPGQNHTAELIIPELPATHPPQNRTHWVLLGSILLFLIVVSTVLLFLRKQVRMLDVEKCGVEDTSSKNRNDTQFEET
SMILES,target or system,test,test system,conditions,scale,measurement,result
O=C(NC1CCN(c2ncnc3[nH]cnc23)CC1)c1cccc(NS(=O)(=O)c2ccc(C(F)(F)F)cc2)c1,"Replicase polyprotein 1ab, nsp14 (Human coronavirus OC43, UniProt P0C6X6)",enzyme activity,,3.125 µM,,inhibition,57.3%
CCCCCC1=C(NCC)C(=O)C(C/C=C(\C)CCC=C(C)C)=C(O)C1=O,human peripheral blood lymphocytes,,,"5 µg/mL, 24 h, without S9",,cytostasis,-25%
C[C@@H]1NC(=O)[C@H](CCCNC(=N)N)NC(=O)[C@H](Cc2ccc3ccccc3c2)NC(=O)[C@H]2CCCCN2C(=O)[C@@H]([C@H](C)O)NC(=O)[C@H](Cc2ccc(F)cc2)NC(=O)[C@@H](Cc2ccc(F)cc2)NC(=O)c2cc3cc(c2)C(=O)NC[C@H](NC(=O)[C@@H](Cc2ccccc2)NC1=O)C(=O)N[C@@H](Cc1ccccc1)C(=O)N[C@@H](Cc1ccc2ccccc2c1)C(=O)N[C@@H](CCCNC(=N)N)C(=O)N[C@@H](CCCNC(=N)N)C(=O)N[C@@H](CCCNC(=N)N)C(=O)N[C@@H](CCCNC(=N)N)C(=O)N[C@H](C(=O)N[C@@H](CCCCN)C(N)=O)CNC3=O,"Peptidyl-prolyl cis-trans isomerase NIMA-interacting 4 (Homo sapiens, UniProt Q9Y237)","enzyme activity, inhibitor",,5 µM,,inhibition,~15%
CN(C)[C@H]1C[C@@]23CC[C@@]4(O2)C(=CC[C@]2(C)[C@@H](c5ccc6ccncc6c5)CC[C@H]24)C=C3[C@@H](O)[C@@H]1O,"1-phosphatidylinositol 3-phosphate 5-kinase (PIKFYVE, Homo sapiens, UniProt Q9Y2I7)","ATP probe labelling, inhibitor, KiNativ profiling",,0.1 µM,,inhibition,-3.9%
Fc1ccccc1CN1CCNCC1,ache,"enzyme activity, inhibitor, Ellman",,20 µM,,inhibition,38%
CC(C)[C@H]1NC(=O)C[C@H]2/C=C/CCSSC[C@@H](NC1=O)C(=O)N[C@H](Cc1cccc3ccccc13)C(=O)NCC(=O)O2,"MAP/microtubule affinity-regulating kinase 4 (MARK4, Homo sapiens, UniProt Q96L34)","enzyme activity, inhibitor",,10 µM,,inhibition,-0.268%
N[C@H](C(=O)N1CCCC1)C1CCN(c2nccc3c(-c4ncc(Cl)cc4Cl)cccc23)CC1,"Protein-arginine deiminase type-2 (PADI2, Homo sapiens, UniProt Q9Y2J8)","enzyme activity, GDH-coupled",,"0.03932 µM, together with: 0.25 mM Ca2+ (low)",,inhibition,60.4%
CCc1cccc(CC)c1-n1cc(CCS(=O)(=O)F)nn1,ache,,,20 µM,,inhibition,5.3 ± 0.7%
CC(C)C[C@@H]1NC(=O)[C@H](CC(=O)O)NC(=O)CNC(=O)[C@H](CCCNC(=N)N)NC(=O)[C@H](Cc2ccccc2)NC(=O)[C@H](CCCCNC(=O)CCc2cn(CCCNC(=O)CCC(C(=O)O)N3CCN(CC(=O)O)CCN(CC(=O)O)CCN(CC(=O)O)CC3)nn2)N(C)C(=O)[C@H]2CCCN2C(=O)[C@H](Cc2ccccc2)NC(=O)[C@H](C)NC1=O (stereo partly shown),,,"female CB17 SCID mice, tumour and liver","intravenous, dose not given, 90 min, 177Lu-labelled",baseline: tumour over liver,tissue-to-tissue ratio,3.5 ± 1.1
CN(/N=C/c1ccccc1C(=O)O)c1nc(-c2ccccc2Cl)cs1,"Tyrosine-protein kinase JAK1 (JAK1, Homo sapiens, UniProt P23458)","enzyme activity, inhibitor",,1 µM,,inhibition,-18.3%
Cc1cc(-c2cc([C@@H](C)NC(=O)c3cc(OCCN(C)C)ccc3C)c3ccccc3n2)n(C)n1,Vero E6,,,250 µM,,viability,5.2% and 6%
CC(=O)NC[C@@H]1[C@@H](O)C[C@H]2[C@H](O)C[C@@H](CO)N12,human placental β-N-acetylglucosaminidase,,,"0.0107 µM, run 2, together with: p-nitrophenyl GlcNAc",,inhibition,14.6%
BP(=O)(OC[C@H]1O[C@@H](n2c[n+](C)c3c(O)nc(N)nc32)[C@H](O)[C@@H]1O)OP(=O)([O-])CP(=O)(O)O (stereo partly shown),dcp2 with Dcp1,,,"200 µM, 0.25 h",,inhibition,43%
COc1ccc2c3c1O[C@H]1[C@H](O)CC[C@@]4(O)[C@@H](C2)N(C)CC[C@]314,,,octanol/buffer,"1 h, pH 7.4",,logD,-0.94
CN[C@@H]1[C@H](O)[C@H](NC)[C@H]2O[C@]3(O)[C@H](O[C@@H]2[C@H]1O)O[C@H](C)C[C@H]3NC(=O)Cc1cc(Cl)ccn1,"Endothelin receptor type B (EDNRB, Homo sapiens, UniProt P24530)","ligand displacement, radioligand",,10 µM,,inhibition,-1%
CCCCN(C=O)c1c(CC)nc2ccc(C(=O)N(C)Cc3ccco3)cn12,ache,"enzyme activity, inhibitor, Ellman",,5 µM,,inhibition,65%
O=C(CN1CN(c2ccccc2)C2(CCN(C(=O)c3cnc4[nH]ncc4c3)CC2)C1=O)NCC(F)(F)F,"Interferon-induced, double-stranded RNA-activated protein kinase (EIF2AK2, Homo sapiens, UniProt P19525)",inhibitor,,concentration not given,,inhibition,< 50%
CCCN,ache,"enzyme activity, inhibitor, Ellman",,20 µM,,inhibition,38.5%
"BP(=O)(OC[C@H]1O[C@@H](n2c[n+](C)c3c(O)nc(N)nc32)[C@H](O)[C@@H]1O)OP(=O)([O-])OP(=O)([O-])OP(B)(=O)OC[C@H]1O[C@@H](n2c[n+](C)c3c(O)nc(N)nc32)[C@H](O)[C@@H]1O (single isomer, unassigned)",dcp2 with Dcp1,,,"200 µM, 0.25 h",,inhibition,36.9%
O=C(Nc1ccccc1SSc1ccccc1NC(=O)c1ccccc1)c1ccccc1,"Programmed cell death 1 ligand 1, with PD-1 (Cd274, Mus musculus, UniProt Q9EP73)","PD-1/PD-L1 binding, inhibitor, ELISA",,concentration not given,,inhibition,inhibited
CCCCN(C)c1c(C)nc2ccc(C(=O)N3CCC[C@@H](C(N)=O)C3)cn12,ache,"enzyme activity, inhibitor, Ellman",,5 µM,,inhibition,69%
O=S(=O)(F)CCc1cn(-c2cccc(Cl)c2)nn1,ache,Ellman,,20 µM,,inhibition,37.4 ± 2.1%
O=C1NC2(CC2)COc2ncc(F)cc2[C@H]2COCCN2c2ccn3ncc1c3n2,,,"Sprague-Dawley rat, female, heart","oral, 20 mg/kg/day, 4 weeks",,organ weight,1.35 ± 0.228 g
C[C@H](NCc1ccc(-c2ccc(C(F)(F)F)cc2)cc1)C(N)=O,"Cyclin-dependent kinase 16 (CDK16, Homo sapiens, UniProt Q00536)","cell-free assay, competition with immobilised ligand",,1 µM,,inhibition,30%
N#Cc1ccc(N2N=C3c4ccc(C(=O)O)cc4CCC3C2C2CCCC2)cc1Cl (stereo not shown),"Histone-lysine N-methyltransferase EHMT1 (EHMT1, Homo sapiens, UniProt Q9H9B1)","enzyme activity, inhibitor",,10 µM,,inhibition,1%
CCn1ccc(-c2cc([C@@H](C)NC(=O)c3cc(OC[C@@H]4CCN4C)ccc3C)c3ccccc3n2)n1,African green monkey cells,,,250 µM,,viability,0.298%
COc1ccc(F)cc1S(=O)(=O)Nc1cnc2c(c1)C(=O)NCCO2,GABA transporter,radioligand binding,,10 µM,,inhibition,-1%
CN[C@@H]1[C@H](O)[C@H](NC)[C@H]2O[C@]3(O)[C@H](O[C@@H]2[C@H]1O)O[C@H](C)C[C@H]3NC(=O)Cc1ccc(Cl)cn1,"Alpha-1D adrenergic receptor (ADRA1D, Homo sapiens, UniProt P25100)","ligand displacement, radioligand",,10 µM,,inhibition,1%
CC(C)C[C@@H]1NC(=O)[C@H](CC(=O)O)NC(=O)CNC(=O)[C@H](CCCNC(=N)N)NC(=O)[C@H](Cc2ccccc2)NC(=O)[C@H](CCCCNC(=O)CCc2cn(CCCNC(=O)CN3CCN(CC(=O)O)CCN(CC(=O)O)CCN(CC(=O)O)CC3)nn2)N(C)C(=O)[C@H]2CCCN2C(=O)[C@H](Cc2ccccc2)NC(=O)[C@H](C)NC1=O,,,"female CB17 SCID mice, tumour and lung","intravenous, dose not given, 90 min, 177Lu-labelled",baseline: tumour over lung,tissue-to-tissue ratio,1.3 ± 0.8
CS(C)(=O)=Nc1ccc(-c2ccc(-c3nc4cc(O[C@@H]5CO[C@H]6[C@@H]5OC[C@H]6O)[nH]c4cc3F)cc2)cc1,"SRSF protein kinase 2 (SRPK2, Homo sapiens, UniProt P78362)","enzyme activity, inhibitor",,10 µM,,inhibition,6%
CCOC(=O)[C@](CC)(CCCSCCOCCOCCNC(=O)c1ccc(-c2c3ccc(=N)c(S(=O)(=O)O)c-3oc3c(S(=O)(=O)O)c(N)ccc23)c(C(=O)O)c1)NC(=O)c1ccc(C2CC2)c(Cc2ccc(F)cc2)n1,"Estrogen receptor (ESR1, Homo sapiens, UniProt P03372)","ligand displacement, radioligand",,10 µM,,inhibition,0%
C[Si](C)(C)C#N,"Retinal rod rhodopsin-sensitive cGMP 3',5'-cyclic phosphodiesterase subunit delta (PDE6D, Homo sapiens, UniProt O43924)","enzyme activity, inhibitor",,5 µM,,inhibition,21.3%
O=C(c1cc(Cc2n[nH]c(=O)c3ccccc23)ccc1F)N1CC(CNC2CC2)C1,"Amine oxidase [flavin-containing] B (MAOB, Homo sapiens, UniProt P27338)","enzyme activity, inhibitor",,10 µM,,inhibition,37%
OB(O)c1cnn(-c2cccc(Cl)c2)c1,"Beta-lactamase (ampC, Escherichia coli K-12, UniProt P00811)",enzyme activity,,"5 x IC50, no preincubation",,inhibition,~80%

# Excerpt of the above:
SMILES,target or system,test,test system,conditions,scale,measurement,result
Cc1cc(-c2cc([C@@H](C)NC(=O)c3cc(OCCN(C)C)ccc3C)c3ccccc3n2)n(C)n1,Vero E6,,,250 µM,,viability,5.2% and 6%
CC(C)C[C@@H]1NC(=O)[C@H](CC(=O)O)NC(=O)CNC(=O)[C@H](CCCNC(=N)N)NC(=O)[C@H](Cc2ccccc2)NC(=O)[C@H](CCCCNC(=O)CCc2cn(CCCNC(=O)CN3CCN(CC(=O)O)CCN(CC(=O)O)CCN(CC(=O)O)CC3)nn2)N(C)C(=O)[C@H]2CCCN2C(=O)[C@H](Cc2ccccc2)NC(=O)[C@H](C)NC1=O,,,"female CB17 SCID mice, tumour and lung","intravenous, dose not given, 90 min, 177Lu-labelled",baseline: tumour over lung,tissue-to-tissue ratio,1.3 ± 0.8
N[C@H](C(=O)N1CCCC1)C1CCN(c2nccc3c(-c4ncc(Cl)cc4Cl)cccc23)CC1,"Protein-arginine deiminase type-2 (PADI2, Homo sapiens, UniProt Q9Y2J8)","enzyme activity, GDH-coupled",,"0.03932 µM, together with: 0.25 mM Ca2+ (low)",,inhibition,60.4%
